Measured values of several laboratories.
Every numbered part comes from another study and shows a few of its results, in no order. Positions count from the first letter of the parent shown.

Study 1
Target: Histone acetyltransferase KAT6A, winged helix 1, GST fusion (KAT6A, Homo sapiens, UniProt Q92794, residues 1-85)
Technique: protein binding microarray
Form: double-stranded DNA, one strand shown
Matrix: in vitro
Concentration: not given
Setting: 8-mer, flanks averaged, mean of 2 arrays, mostly near background
Baseline: not given
Reading: higher = stronger binding
Target sequence (chain): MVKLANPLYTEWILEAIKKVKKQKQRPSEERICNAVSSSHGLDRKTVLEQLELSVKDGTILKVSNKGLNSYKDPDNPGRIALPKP
`ACAGTGAC` gave an E-score of -0.00758.
With `CGAGGTGC` the E-score was 0.0937.
`GTCACGAA` has an E-score of -0.0561.
With `TTGGAAAA` the E-score was -0.0858.
The E-score of `AAGACCGG` is reported as 0.116.
For `CGCCGAGA`, the E-score was 0.309.
With `CAGGAGCC` the E-score was 0.0179.
For `CACCGAGG`, the E-score was 0.0702.
`ACCTACCG` gave an E-score of 0.0527.
With `AAGTAATG` the E-score was -0.00709.

Study 2
Target: Sal-like protein 4, full length isoform A (SALL4, Homo sapiens, UniProt Q9UJQ4, residues 1-1053)
Chain of UniProt Q9UJQ4 (whole entry, looked up): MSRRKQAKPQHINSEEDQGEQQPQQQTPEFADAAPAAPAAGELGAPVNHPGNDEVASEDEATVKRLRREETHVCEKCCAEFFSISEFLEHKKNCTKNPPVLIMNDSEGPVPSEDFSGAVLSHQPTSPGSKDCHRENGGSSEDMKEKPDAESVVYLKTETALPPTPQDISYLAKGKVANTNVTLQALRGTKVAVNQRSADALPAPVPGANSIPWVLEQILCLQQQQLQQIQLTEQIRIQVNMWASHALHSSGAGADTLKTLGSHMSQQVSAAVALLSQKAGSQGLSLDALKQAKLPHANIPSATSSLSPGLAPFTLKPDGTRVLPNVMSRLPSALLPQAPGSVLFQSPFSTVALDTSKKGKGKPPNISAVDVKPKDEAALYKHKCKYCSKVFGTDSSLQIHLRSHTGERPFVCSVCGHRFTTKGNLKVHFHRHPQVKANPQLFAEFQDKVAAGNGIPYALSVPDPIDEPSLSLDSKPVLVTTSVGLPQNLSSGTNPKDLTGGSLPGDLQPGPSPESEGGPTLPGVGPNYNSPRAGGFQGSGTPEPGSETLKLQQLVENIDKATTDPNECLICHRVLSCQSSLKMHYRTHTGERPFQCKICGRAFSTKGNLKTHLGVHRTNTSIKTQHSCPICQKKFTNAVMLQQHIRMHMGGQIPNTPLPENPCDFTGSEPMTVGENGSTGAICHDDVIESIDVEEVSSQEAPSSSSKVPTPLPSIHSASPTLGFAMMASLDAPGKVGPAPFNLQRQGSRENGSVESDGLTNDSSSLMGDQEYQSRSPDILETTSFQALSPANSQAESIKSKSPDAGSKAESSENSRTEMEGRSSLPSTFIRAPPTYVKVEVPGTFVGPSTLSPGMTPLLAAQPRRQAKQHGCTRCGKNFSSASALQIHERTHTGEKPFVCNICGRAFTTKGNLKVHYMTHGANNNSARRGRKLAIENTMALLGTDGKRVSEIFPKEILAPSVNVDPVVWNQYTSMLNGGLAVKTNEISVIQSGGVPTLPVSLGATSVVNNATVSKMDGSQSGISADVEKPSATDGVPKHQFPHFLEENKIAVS
Technique: universal PBM
Form: double-stranded DNA, one strand shown
Matrix: in vitro
Concentration: 600 nM
Setting: 8-mer, flanks averaged, mean of replicates
Reading: higher = stronger binding
The E-score of `AAGGACCT` is reported as 0.0104.
The E-score of `GTACGACA` is reported as 0.0206.
For `TGACGAAA`, the E-score was 0.246.
The E-score of `GCGCGAAA` is reported as 0.0392.
`CCTGTCCA` has an E-score of -0.192.
For `CCACACAG`, the E-score was -0.0887.
`AGTCCGGA` has an E-score of -0.0712.
The E-score of `GACGCATC` is reported as -0.0463.
The E-score of `ATTGGGAA` is reported as 0.117.
With `CGACAACA` the E-score was -0.0674.
For `CCACACTA`, the E-score was 0.0868.
`AGTGCATC` gave an E-score of -0.00534.
With `GCACAGCC` the E-score was -0.343.
With `AGGAGTAA` the E-score was 0.0837.

Study 3
Target: CCNF, cyclin fold, Cln2 fusion (human)
Technique: yeast growth competition, sequencing
Matrix: yeast
Setting: strong parent motif
Baseline: not given
Reading: higher = stronger binding
Starting sequence: MICAL3 docking peptide (human); LQLRRQLSFSEDS
Under “normalised enrichment score”, `LQLRRELSFSEDS [Q6E]` is recorded as 3.3.
`LQLGRQLSFSEDS [R4G]`: “normalised enrichment score” 2.55.
`LQLRRQLSFSFDS [E11F]` — result for “normalised enrichment score”: 5.98.
`LQLRRPLSFSEDS [Q6P]` — result for “normalised enrichment score”: 1.23.
For `LQLRRQLSRSEDS [F9R]`, “normalised enrichment score” read 0.551.
`LQLRRQLSFTEDS [S10T]`: “normalised enrichment score” 5.21.
For `LQLRRQLQFSEDS [S8Q]`, “normalised enrichment score” read 8.08.
`LQLRRQLSFSWDS [E11W]` — result for “normalised enrichment score”: 5.9.
`LQLRRQLSFMEDS [S10M]` — result for “normalised enrichment score”: 5.56.

Mixed results
With `PhoQ, residues 284 288 289 292 302 303 SSTMSV` the fold induction was 17.2 (PhoP, residues 12 14 15 18 19 LHATL (Escherichia coli, UniProt P23836); Sort-seq, refers to: YFP reporter; E. coli; PhoQ-PhoP variant library, together with: 10 µM Mg2+; baseline: high Mg2+ state, higher = stronger signaling).

Excerpt of the above (mixed results):
With `PhoQ, residues 284 288 289 292 302 303 SSTMSV` the fold induction was 17.2 (PhoP, residues 12 14 15 18 19 LHATL (Escherichia coli, UniProt P23836); Sort-seq, refers to: YFP reporter; E. coli; PhoQ-PhoP variant library, together with: 10 µM Mg2+; baseline: high Mg2+ state, higher = stronger signaling).
